Published values of several laboratories.
Protocols differ between the studies behind these lines. Values joined by “and” are separate records of one study, mostly repeats; a detail may differ. ± marks the error that the study gave.
MAPK3: Mitogen-activated protein kinase 3 (MAPK3, Homo sapiens, UniProt P27361)
Sequence of UniProt P27361 (whole entry, looked up): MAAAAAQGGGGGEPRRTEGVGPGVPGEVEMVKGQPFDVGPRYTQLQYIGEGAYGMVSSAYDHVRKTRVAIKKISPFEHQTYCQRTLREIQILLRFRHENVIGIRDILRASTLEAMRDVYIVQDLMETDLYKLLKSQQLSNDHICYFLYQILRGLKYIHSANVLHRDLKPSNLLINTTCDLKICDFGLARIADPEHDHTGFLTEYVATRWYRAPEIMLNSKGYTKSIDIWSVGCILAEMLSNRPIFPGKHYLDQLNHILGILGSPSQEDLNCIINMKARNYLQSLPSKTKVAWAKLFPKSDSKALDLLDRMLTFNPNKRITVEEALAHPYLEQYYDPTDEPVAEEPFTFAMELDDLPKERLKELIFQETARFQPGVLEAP

The viability of `O=C(CCCN1C(=O)c2cccc3cccc(c23)C1=O)NO` is reported as 100% (OCI-Ly1; 0.5 µM, 120 h).
The remaining activity of `CNc1ncc2c(/C=C/C(=O)N3CCC(OC)CC3)nn(Cc3cccc(C(F)(F)F)c3)c2n1` is reported as 104% (MAPK3; kinase activity, inhibitor; 1 µM; reference: untreated control).
With `CNc1cc(Oc2cc(C(=O)Nc3cc(N4CCN(C)CC4)cc(C(F)(F)F)c3)ccc2C)ncn1` the inhibition was -51.7% (MAPK3; Huh-7; 1 µM).
`C=CC(=O)N1CCC(COCC(=O)N2CCN(c3nc(-c4cnc(N)nc4C(F)F)nc(N4CCOC[C@@H]4C)n3)CC2)CC1` gave a remaining binding of 100% (MAPK3; KINOMEscan; 1 µM).
The remaining activity of `c1cnc2ccc(Nc3nc(NC4CC4)c4nc[nH]c4n3)cc2c1` is reported as 78% (MAPK3; kinase activity, inhibitor, SelectScreen kinase profiling; 1 µM; reference: control).
For `COc1ccc(F)cc1C(=O)NCc1ccc(-c2nn([C@@H](C)C(F)(F)F)c(N)c2C(N)=O)cc1`, the remaining activity was 91.5 ± 0.4% (MAPK3; kinase activity, inhibitor, HotSpot radiometric; 100 nM, with: ATP 10 µM).
With `C=CC(=O)N1CCC[C@@H](n2nc(-c3ccc(Oc4ccccc4)cc3)c3c(N)ncnc32)C1` the remaining activity was 22.6% (MAPK3; 10 µM).
The remaining activity of `CC#CC(=O)N1CCC[C@H]1c1nc(-c2ccc(C(=O)Nc3ccccn3)cc2)c2c(N)nccn12` is reported as 102.4 ± 0.6% (MAPK3; kinase activity, inhibitor, HotSpot radiometric; 100 nM, with: ATP 10 µM).
`O=C1NC(=O)/C(=C/c2ccc(-c3ccc(F)cc3O)o2)S1` has a remaining activity of 85% (MAPK3; enzyme activity; 10 µM).
With `COc1cc([C@@H]2c3cc4c(cc3[C@@H](O[C@@H]3O[C@@H]5CO[C@@H](C)O[C@H]5[C@H](O)[C@H]3O)[C@H]3COC(=O)[C@H]23)OCO4)cc(OC)c1O` the viability was 6.18% (OCI-Ly1; 0.5 µM, 120 h).
`[2H]c1cc(C)c(NC(=O)c2cnc(Nc3cc(N4CCCCC4)nc(C)n3)s2)c(Cl)c1` gave an inhibition of less than 30% (MAPK3; 0.01 µM).
`Nc1[nH]nc2nnc(-c3c(-c4ccccc4)nn4ccccc34)cc12` has a kinase activity of 93.2% and 118% and 77.4% (MAPK3; ADP-Glo; 10.5 nM, with: MBP substrate).

Some of these lines once more:
The remaining activity of `c1cnc2ccc(Nc3nc(NC4CC4)c4nc[nH]c4n3)cc2c1` is reported as 78% (MAPK3; kinase activity, inhibitor, SelectScreen kinase profiling; 1 µM; reference: control).
`O=C1NC(=O)/C(=C/c2ccc(-c3ccc(F)cc3O)o2)S1` has a remaining activity of 85% (MAPK3; enzyme activity; 10 µM).
